Assay results gathered from unrelated publications.
Compare with care: the assays were run in different laboratories. ± gives the spread as reported.

`CC(=O)O[C@@H]1C[C@H]2C(C)(C)[C@H](O)CC[C@]2(C)[C@H]2CC[C@@]3(C)C(=CC[C@H]3[C@@H](C)C[C@@H](O)[C@H](O)C(C)(C)O)[C@@]21C` has an IC50 of 15.6 ± 3.6 µM (SCM-1; cytotoxicity, MTT).
`CSc1nc(Nc2ccc(/C(C)=N/NC(=O)c3cccc(Cl)c3)cc2)c(C#N)c(-c2ccccc2)n1` has an IC50 of 9.25 to 15.3 µM (HCT-116 and MCF7; cell growth, MTT; range over compound group).
`C#CCN(C(=O)OCc1ccc(F)cc1)[c-]1cccc1.[Fe+2].c1cc[cH-]c1` has an IC50 of 18.2 µM (BL2; cell growth or viability, MTT; 48 h).
With `COC(=O)[C@H]1[C@H]2C[C@H]3O[C@@]4(CCN3C[C@H]2C[C@@H](OC(=O)c2cc(OC)c(OC)c(OC)c2)[C@@H]1OC)C(=O)Nc1cc(OC)c(-c2ccc(C(C)(C)C)cc2)cc14` the IC50 was 7.33 µM (NALM-6; cell growth or viability, trypan blue; 72 h).
`CC(C)=CCC1=C([O-])C(=O)c2ccccc2C1=O.CC(C)=CCC1=C([O-])C(=O)c2ccccc2C1=O.Cc1cc2cccnc2c2ncccc12.[Cu+2]` has an IC50 of 0.9 ± 0.1 µM (A2780R cisplatin-resistant; cell viability, MTT; 24 h).
The IC50 of `O=C1CC[C@H](N2Cc3cc(-c4cnn5ccc(NC6CCC(F)(F)CC6)nc45)ccc3C2=O)C(=O)N1` is reported as greater than 0.1 µM (MOLM-13; cell growth, CellTiter luminescence; 72 h).
The IC50 of `C/C(=N/O)c1ccc(NS(=O)(=O)c2cccc(/C=C/C(=O)NO)c2)cc1` is reported as 2.14 ± 1.25 µM (MOPC-315; cell growth; 24 h).
`CN1CCC(N[C@@H]2CCc3[nH]c4c(C(N)=O)ccc(-c5ccccc5Cl)c4c3C2)CC1` gave an IC50 of 0.0084 µM (colorectal cancer organoid sample D; cell growth, CellTiter-Glo; 6 days).
With `NCCNC(=O)c1ccc2[nH]c(C(=O)c3ccc(O)cc3)nc2c1` the IC50 was greater than 300 µM (SNU-1 (KRAS G12D); cell viability, CellTiter-Glo; 72 h).
`COC(=O)[C@@H](Cc1cn(Cc2ccccc2)nn1)NC(=O)OCC1c2ccccc2-c2ccccc21` has an IC50 of 4.4 µM (ASPC1; cell growth or viability, MTS; 72 h).
The IC50 of `COc1cc(/C=C/C=O)ccc1O` is reported as greater than 30 µM (SCM-1; cytotoxicity, MTT).
The IC50 of `CC(C)NC(=O)[C@H](CCc1ccccc1)NC(=O)[C@H](CC(=O)NCC(C)(C)C)NC(=O)CCc1ccccc1` is reported as 0.19 ± 0.076 µM (WSUDLCL2; proteasome β5 activity, inhibitor, Proteasome-Glo β5; 1 h).
`Cc1cc(C)cc(/C=N/NC(=N)N/N=C/c2cc(C)cc(C)c2)c1` gave an IC50 of 141 ± 21.1 µM (hTERT-HPNE; cell growth, crystal violet; 72 h).
With `Cc1cc(C=O)cc(C)c1Oc1cc(Nc2ccc(C#N)cn2)nc2ccncc12` the IC50 was greater than 126 µM (S102; 48 h).
For `COc1ccc(/N=N/C(=S)N2CCCCC2)cc1`, the IC50 was greater than 50 µM (HT-1080; cell growth or viability, resazurin; 48 h).
With `COC(=O)[C@@H]1[C@@H](OC)[C@H](OC(=O)c2cc(OC)c(OC)c(OC)c2)C[C@@H]2CN3CC[C@]4(O[C@@H]3C(=O)[C@@H]21)C(=O)Nc1cc(OC)ccc14` the IC50 was 3.68 µM (NALM-6; cell growth or viability, trypan blue; 72 h).
The IC50 of `Cc1cc(-c2ccccc2)c2ccc3c(-c4ccccc4)cc(C)nc3c2n1.[Cl-].[Cl-].[Ru+2].c1ccc(-c2ccccn2)nc1.c1ccc(-c2ccccn2)nc1` is reported as 52 ± 13 µM (rat bone marrow MSCs; cell viability; dark).
`C=CC(=O)N1C[C@H](C)N(c2nc(OC[C@@]34CCCN3C[C@H](F)C4)nc3c(F)c(-c4ccc(F)c5sc(N)c(C#N)c45)c(C(F)(F)F)cc23)C[C@H]1C` gave an IC50 of greater than 10 µM (BRAF V600E-driven mouse embryonic fibroblasts; measured: pERK).
`COc1cc(-c2cc(=O)c3c(O)cc(OC4OC(COC5OC(C)C(O)C(O)C5O)C(O)C(O)C4O)cc3o2)ccc1O` (stereo not shown) gave an IC50 of greater than 100 µM (MDA-MB-231/BCRP BCRP-transfected, multidrug-resistant; cytotoxicity, resazurin reduction; 72 h).
The IC50 of `CCOc1cncc(-c2ccc(NC(=O)C3(c4ccnc(NS(=O)(=O)C5CC5)n4)CCOCC3)nc2)n1` is reported as 0.003 to 0.356 µM (sensitive neoplastic B-cell lines; cell proliferation; 72 h, range over lines).
The IC50 of `COc1cc(OC)cc(C2=C3C(C)=C(I)C(/C=C/c4cccs4)=[N+]3[B-](F)(F)n3c(/C=C/c4cccs4)c(I)c(C)c32)c1` is reported as greater than 400 µM (HEp-2; cell growth or viability, resazurin; 24 h, dark).
With `N#C/C(=C\c1cn(-c2ccccc2)nc1-c1cccc(Cl)c1)c1nc2ccccc2[nH]1` the IC50 was greater than 100 µM (ASPC1; cell growth or viability, ATP luminescence; 72 h).
With `[Cl][Pd-]1([Cl])[S]C(Nc2ccccc2)=N[N+]1=Cc1ccc(-c2ccccc2)s1` the IC50 was 100 µM (HEL human lung fibroblasts; cell proliferation).
With `C=C(C)[C@H]1CC[C@@]2(C)CC[C@]3(C)C[C@H]4[C@@H](C)CC[C@H]4/C(C)=C\C[C@H]3[C@H]12` the IC50 was 409 µM (CT26; cell growth or viability, MTT; 72 h).
For `CCN1CCC2(CC1)C/C(=N\NC(=O)Nc1ccc(OC)cc1)c1ccccc1O2`, the IC50 was 5.47 to 39 µM (MCF7, HCT-116, PC-3, A549; cell growth, MTT; range over cell lines).
`C=CC(=O)Nc1cc(Nc2nccc(-c3c(-c4ccc5c(c4)OCO5)n(C)c4ccccc34)n2)c(OC)cc1N(C)CCN(C)C` gave an IC50 of 0.374 µM (NCI-H1975; cell growth or viability, MTT; 72 h).
The IC50 of `[Ru+2].c1ccc(-c2cccc(-c3ccccn3)n2)nc1.c1ccc2nc(-c3ccc4ccccc4n3)ccc2c1.c1ccncc1` is reported as 11 ± 0.2 µM (HL-60; cell viability; together with: light 22 J/cm^2).
For `Cc1cc(/C=C/C#N)cc(C)c1Oc1cc(Nc2ccc(C#N)cn2)nc2cnccc12`, the IC50 was 66.7 ± 10.2 µM (S102; 48 h).
`CC(=O)O[C@H]1CC[C@]2(C)[C@H]3CC=C4[C@@H]5[C@@H](C)[C@H](C)CC[C@]5(C)CC[C@@]4(C)[C@]3(C)CC[C@H]2C1(C)C` has an IC50 of 8.84 µg/mL (HDFn; cell viability, PrestoBlue; 96 h).
For `OC[C@H]1[C@@H](O)[C@@H](O)CN1CCc1ccccc1`, the IC50 was 117 µM (K562-Tax; cell growth or viability, MTS; 72 h).
For `Cc1ccc(F)cc1NS(=O)(=O)c1cccc(/C=C/C(=O)NO)c1`, the IC50 was 0.38 ± 0.073 µM (MOPC-315; cell growth; 24 h).
The IC50 of `N#Cc1cnn2ccc(-c3ccc4c(c3)CN([C@H]3CCC(=O)NC3=O)C4=O)nc12` is reported as greater than 0.1 µM (MOLM-13; cell growth, CellTiter luminescence; 72 h).
With `C=CC(=O)Nc1cc(Nc2nccc(-c3c(-c4ccc(Cl)cc4)n(C)c4ccccc34)n2)c(OC)cc1N(C)CCN(C)C` the IC50 was 0.106 µM (NCI-H1975; cell growth or viability, MTT; 72 h).
The IC50 of `Cc1cc(CN2CCC(CCCCCCC(=O)NO)CC2)cc(C)c1-c1ncn(C)c1-c1ccc(C#N)c2ccccc12` is reported as 0.15 µM (Bel-7405; cell growth, MTT; 72 h).
The IC50 of `CCOC(=O)c1[nH]c(C)c(/C=C/C2=[N+]3C(=C(c4cc(OC)cc(OC)c4)c4c(C)c(I)c(/C=C/c5c(C)[nH]c(C(=O)OCC)c5C)n4[B-]3(F)F)C(C)=C2I)c1C` is reported as greater than 100 µM (HEp-2; phototoxicity, CellTiter-Blue; together with: light 1.5 J/cm^2).
With `N=C(N/N=C/c1ncc[nH]1)N/N=C/c1ncc[nH]1` the IC50 was 258 ± 33.5 µM (hTERT-HPNE; cell growth, crystal violet; 72 h).
For `CC(=O)Oc1ccccc1/C=C/C(=O)Nc1nc(=O)n([C@@H]2O[C@H](C)[C@@H](OC(C)=O)[C@H]2OC(C)=O)cc1F`, the IC50 was 69.3 µM (ASPC1; cell growth or viability, MTT; 72 h).
With `CCCCCCCCCCCCN(CCCCCCCCCCCC)C1=[S+][Au-2]2([S]1)[c]1ccccc1-c1cccc[n+]12.F[P-](F)(F)(F)(F)F` (stereo not shown) the IC50 was 22.9 µM (UWB1289; cell growth or viability, MTT; 72 h).
With `O=C1CC[C@H](N2Cc3cc(-c4cnn5ccc(Nc6ccc7c(c6)OCO7)nc45)ccc3C2=O)C(=O)N1` the IC50 was greater than 0.1 µM (MOLM-13; cell growth, CellTiter luminescence; 72 h).
For `[Ru+2].c1ccc(-c2cccc(-c3ccccn3)n2)nc1.c1ccc(-c2ccccn2)nc1.c1cnccn1`, the IC50 was greater than 100 µM (HL-60; cell viability; together with: light 22 J/cm^2).
With `Cc1nn(-c2ccc(S(=O)(=O)N[C@H](CO)CC(C)C)cc2)c2nn3nnnc3nc12` the IC50 was 1.11 µM (human Lymphocyte; cell growth or viability, MTT; 72 h).
For `O=C1NCC(Cc2ccccc2)N(CC2CCCN2CC(CC2CCCCC2)N2CC(Cc3ccc(O)cc3)N(CCc3ccccc3)C(=O)C2=O)C1=O` (stereo not shown), the IC50 was greater than 10 µM (oligodendrocyte precursor cells; viability; 72 h).
The IC50 of `CC(C)CCc1c(O)cc2oc3cc(O)c(O)c(CCC(C)C)c3c(=O)c2c1O` is reported as 6.48 µM (BEAS-2B; cell growth or viability).
The IC50 of `c1ccc(-c2cn(-c3ccc(-c4cc(-c5ccccn5)nc(-c5ccccn5)c4)cc3)nn2)nc1` is reported as greater than 25 µM (NHDF normal human fibroblasts; cytotoxicity, MTS; 72 h).
`CC(=O)c1cnc(N)nc1N1CC[C@H]1c1nn2ccc(Cl)c2c(=O)n1-c1ccccc1` has an IC50 of 0.34 µM (basophils; CD63 upregulation, inhibitor; human whole blood; PI3K gamma response, together with: fMLP).
`C=C(C)C(=O)Nc1ccc(-c2c(-c3ccc(Oc4cccc(C)n4)cc3)c3c(N)ncnc3n2C)cc1` has an IC50 of 0.4 µM (JMSU-1; cell growth or viability, ATP luminescence; 96 h).
`CCN1CCC2(CC1)C/C(=N\N=C\c1ccc(O)cc1)c1ccccc1O2` has an IC50 of 20.6 to 49.5 µM (MCF7, HCT-116, PC-3, A549; cell growth, MTT; range over cell lines).
`[CH3][Pd-2]([Cl])([N+](=Cc1ccc[nH]1)Cc1ccccc1)[N+](=Cc1ccc[nH]1)Cc1ccccc1` has an IC50 of 22.9 µg/mL (MCF-12A; cell growth or viability, MTT; 24 h).
With `CC1=C2[O][Ru-]([Cl])[O+]=C2C=CN1CCCN1C=CC2=[O+][Ru-]([Cl])[O]C2=C1C.Cc1ccc(C(C)C)cc1.Cc1ccc(C(C)C)cc1` the IC50 was greater than 20 µM (KYSE70-oxo oxoplatin-resistant; crystal violet; 96 h).
For `CC(C)(CCCC/C=C/CCCCCC(C)(C)C(=O)O)C(=O)O`, the IC50 was 5.53 ± 2.49 µM (mouse primary hepatocytes; cholesterol biosynthesis; 4 h, together with: [14C]-citrate).
The IC50 of `COc1cc(OC)cc(C2=C3C(C)=C(I)C(/C=C/c4c[nH]c5ccc([N+](=O)[O-])cc45)=[N+]3[B-](F)(F)n3c(/C=C/c4c[nH]c5ccc([N+](=O)[O-])cc45)c(I)c(C)c32)c1` is reported as greater than 400 µM (HEp-2; cell growth or viability, resazurin; 24 h, dark).
`Cc1ccnc(Oc2ccc(-c3c(-c4ccc(NC(=O)C(C)C)cc4)n(C)c4ncnc(N)c34)cc2F)n1` gave an IC50 of 9.65 µM (JMSU-1; cell growth or viability, ATP luminescence; 96 h).
`O=[N+]([O-])c1ccc(NC(=S)N/N=C/c2cccs2)cc1` gave an IC50 of 3.2 µM (HEL human lung fibroblasts; cell growth).
`Cc1c(C)n(-c2c(C(C)C)cccc2C(C)C)c(=[Se])n1-c1c(C(C)C)cccc1C(C)C.[Cl][Ag]` has an IC50 of 1 ± 0.4 µM (H157 lung carcinoma cells; cell viability, MTT; 72 h).
For `CC(C)=CCC1=C(O)c2c(occ(-c3ccc(O)cc3)c2=O)C(CC=C(C)C)(CC=C(C)C)C1=O`, the IC50 was 22.4 µM (KKU100; cell growth or viability, MTT; 24 h).

A few entries again:
The IC50 of `O=C1CC[C@H](N2Cc3cc(-c4cnn5ccc(NC6CCC(F)(F)CC6)nc45)ccc3C2=O)C(=O)N1` is reported as greater than 0.1 µM (MOLM-13; cell growth, CellTiter luminescence; 72 h).
With `N=C(N/N=C/c1ncc[nH]1)N/N=C/c1ncc[nH]1` the IC50 was 258 ± 33.5 µM (hTERT-HPNE; cell growth, crystal violet; 72 h).
`Cc1cc(C)cc(/C=N/NC(=N)N/N=C/c2cc(C)cc(C)c2)c1` gave an IC50 of 141 ± 21.1 µM (hTERT-HPNE; cell growth, crystal violet; 72 h).
The IC50 of `c1ccc(-c2cn(-c3ccc(-c4cc(-c5ccccn5)nc(-c5ccccn5)c4)cc3)nn2)nc1` is reported as greater than 25 µM (NHDF normal human fibroblasts; cytotoxicity, MTS; 72 h).
For `OC[C@H]1[C@@H](O)[C@@H](O)CN1CCc1ccccc1`, the IC50 was 117 µM (K562-Tax; cell growth or viability, MTS; 72 h).
The IC50 of `CC(C)CCc1c(O)cc2oc3cc(O)c(O)c(CCC(C)C)c3c(=O)c2c1O` is reported as 6.48 µM (BEAS-2B; cell growth or viability).
